{"data": "Published values of several laboratories", "note": "Parts stem from different laboratories: compare values within a part only."}
{"data": "Series 1", "target": "RING finger protein unkempt homolog, zinc fingers 1-6, SBP tag (UNK, Homo sapiens, UniProt Q9C0B0, residues 30-357)", "technique": "RNA Bind-n-Seq", "molecule type": "RNA", "sample": "in vitro", "tested at": "100 nM", "setting": "RNA with constant flanks, vertebrate orthologous sites, ends assumed", "relative to": "input RNA pool", "reading": "higher = stronger binding", "shared flanks, not repeated": "GGGAGUUCUACAGUCCGACGAUC … CAACAGAGGAUUGAGCAUCA", "UniProt Q9C0B0, sequence (30-357, looked up)": "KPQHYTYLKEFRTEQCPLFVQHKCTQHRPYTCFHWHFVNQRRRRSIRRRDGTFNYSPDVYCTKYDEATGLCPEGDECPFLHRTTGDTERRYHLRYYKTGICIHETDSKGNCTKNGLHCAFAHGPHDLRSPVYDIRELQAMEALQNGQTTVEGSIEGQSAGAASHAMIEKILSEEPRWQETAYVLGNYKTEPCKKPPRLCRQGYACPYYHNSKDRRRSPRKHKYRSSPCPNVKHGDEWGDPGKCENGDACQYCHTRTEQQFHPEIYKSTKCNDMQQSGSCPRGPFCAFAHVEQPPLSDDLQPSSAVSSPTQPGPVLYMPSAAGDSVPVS"}
{"Strand": "AUCCCAGUUUGUAUGCACAUUAUUCACAUUCCUAUCUGUUGUGUUUGCAGAAAUUACAUUUUAUCCUUUUCUAAGGAAUAUCUUUUGAUUUUCAUGUUAUUUGGUUGCAUGGAGUUGCCU", "bound/input enrichment [ratio]": 0.527}
{"Strand": "CAUUUUCUUGUUUUAGGUAUCAUUGCCCAAUGCCCAAGAUCUUUUAUGUUCAGCUGACUGUAGGAAAUAAUGAAUUUUUUGGAGAAGGAAAGACUCGGCAAGCUGCUAGACACAAUGCUG", "bound/input enrichment [ratio]": 1.15}
{"Strand": "CGUGCUUAUGCUCUUCUAUGAGAGAGAUGAAUUGGGGAGAACUGUCUCCAUUUUAUAGAUUAGUUUCUUUCUAAAUUAUGACCAAAAAUAUUUUGCUAUUUCUUUCUUUGUAUAUGGACA", "bound/input enrichment [ratio]": 0.509}
{"Strand": "GGCUACAAUAAUGAAAACUUAAAGGAUUUCUUUUCAUUUUUAAUUUUCCCCUUAGGCAUAUUUAGGCAUUUUUUUUCCAGGCAGAUCAUUAAGAGUAUGUCUGUGUGUGUGCCCAUGUUA", "bound/input enrichment [ratio]": 0.79}
{"Strand": "GGUCAUGUAUAGCAAUUAGAGUGGGUUGCCUUUCUACUUCUCCCGAGAAGAAAUCCCAAAUAGAUUCCUUUCAUGUCAGAUUAUACUGUUCUGAUUUUCUUUUCUAUUAUUUUUACAUAU", "bound/input enrichment [ratio]": 0.772}
{"Strand": "CUCUCUCAGUGACAGUAUCCCAUCUGUAGCUGAUUCUCACUCAAGUCACUUUUCUGAGUUUAGUUGCUCUGAUAUGGAAAGUAUGAAAACCUCAUGUAGCCAUGGCUCCAGUGAUUAUCA", "bound/input enrichment [ratio]": 0.475}
{"Strand": "UUCAGGCACAACUGACUGGUUCACAGCAUUCCUUACAUAGUUAUCUGUCAAAUGCAAGUGUAGUUAAUUUUCAGGAAACAACCAGGCAGUCAUCUUUAUCCUGUAGCUCAAUUGGAGAUU", "bound/input enrichment [ratio]": 1.19}
{"Strand": "CCGAAAGGCCAAAUUCCCUCCUCCCUCCUACUGCUUCUACCAACUGGAAGCACAGAAAACUAGAAUUUCAUUUAUUUUGUUUUUAAAAUAUAUAUGUUGAUUUCUUGUAACAUCCAAUAG", "bound/input enrichment [ratio]": 0.498}
{"Strand": "GGGACGCUUUGAUGUAAAAAUUGAAGUUAAGAGCUGAUCACAAGCACAGAUCUUUCCCACUAGCCAUUGAAAAAAAGUAAAAAAGAUAACAAAAACAAAAACCUACUAGUCUUGAACAAA", "bound/input enrichment [ratio]": 2.26}
{"Strand": "CGUCAUACCAGCAUAUUAACUAGUUAGUCAUACAUGCACAGCUUAAAGAAAGUAACAGUCUAGUUAUUUUUUUAAUUGUUUUAAAAACAAGUUUCCCAGCUACGUACAAAAAAAAAAAAA", "bound/input enrichment [ratio]": 1.22}
{"Strand": "CCACUCAUAGGCAAUGUAUAUCUAACAGUGGUUGCAGAACUGAACUUGCACUUGAAUAGGAUUAACUUGUUACAAUUAAGCUACCCAGGUUUCGUUAAACCUGAGAGGCGCUGCUGCGUC", "bound/input enrichment [ratio]": 0.424}
{"data": "Series 2", "target": "Prothrombin, mature alpha-thrombin (F2, Homo sapiens, UniProt P00734)", "technique": "aptamer microarray, sandwich", "molecule type": "DNA with 2'F-ANA", "sample": "in vitro", "tested at": "200 nM", "setting": "whole 15-mer aptamer, many near background", "together with": "Cy3 exosite-II aptamer, 400 nM", "reading": "higher = stronger binding", "strand": "GGTTGGTGTGGTTGG"}
{"Modification": "2'F-ANA at 1 3 5 6 7 10 13 14", "mean fluorescence intensity [a.u.]": 48.6}
{"Modification": "2'F-ANA at 1 3 4 5 7 9 11 13", "mean fluorescence intensity [a.u.]": 51.1}
{"Modification": "2'F-ANA at 3 7 9 14 15", "mean fluorescence intensity [a.u.]": 553}
{"Modification": "2'F-ANA at 6 7 10 12 15", "mean fluorescence intensity [a.u.]": 215}
{"Modification": "2'F-ANA at 4 5 6 8 13 15", "mean fluorescence intensity [a.u.]": 55}
{"Modification": "2'F-ANA at 3 4 5 7 8 10 11 12 13 15", "mean fluorescence intensity [a.u.]": 58.7}
{"Modification": "2'F-ANA at 1 3 5 7 8 11", "mean fluorescence intensity [a.u.]": 59.4}
{"Modification": "2'F-ANA at 1 2 3 6 7 9 10 11 12 13 14", "mean fluorescence intensity [a.u.]": 61}
{"Modification": "2'F-ANA at 1 6 7 9 12 14", "mean fluorescence intensity [a.u.]": 60.6}
{"Modification": "2'F-ANA at 1 2 6 7 8 9 10 12 13", "mean fluorescence intensity [a.u.]": 70.5}
{"Modification": "2'F-ANA at 2 3 9 10 12 13 14 15", "mean fluorescence intensity [a.u.]": 271}
{"Modification": "2'F-ANA at 1 2 3 4 6 8 9 12 14 15", "mean fluorescence intensity [a.u.]": 71.6}
{"Modification": "2'F-ANA at 1 3 4 6 7 10 11 13 14", "mean fluorescence intensity [a.u.]": 53.5}
{"Modification": "2'F-ANA at 1 2 8 12 14 15", "mean fluorescence intensity [a.u.]": 113}
{"Modification": "2'F-ANA at 3 4 8", "mean fluorescence intensity [a.u.]": 894}
{"Modification": "2'F-ANA at 1 2 3 6 8 10 11 14 15", "mean fluorescence intensity [a.u.]": 53.5}
{"Modification": "2'F-ANA at 2 4 5 7 8 9 10 12 14", "mean fluorescence intensity [a.u.]": 47.6}
{"Modification": "2'F-ANA at 2 8 9 11 13 14", "mean fluorescence intensity [a.u.]": 123}
{"data": "Series 3", "target": "Centromere-binding protein 1, full length, His-tagged (CBF1, Saccharomyces cerevisiae, UniProt P17106, residues 1-351)", "technique": "competition protein-binding microarray", "molecule type": "double-stranded DNA, one strand shown", "sample": "in vitro", "tested at": "2 µM", "setting": "whole 60-bp probe, lowest competitor level", "together with": "Pho4 competitor, 0.05 µM", "reading": "higher = stronger binding", "shared flanks, not repeated": "… GTCTTGATTCGCTTGACGCTGCTG", "UniProt P17106, sequence (whole entry, looked up)": "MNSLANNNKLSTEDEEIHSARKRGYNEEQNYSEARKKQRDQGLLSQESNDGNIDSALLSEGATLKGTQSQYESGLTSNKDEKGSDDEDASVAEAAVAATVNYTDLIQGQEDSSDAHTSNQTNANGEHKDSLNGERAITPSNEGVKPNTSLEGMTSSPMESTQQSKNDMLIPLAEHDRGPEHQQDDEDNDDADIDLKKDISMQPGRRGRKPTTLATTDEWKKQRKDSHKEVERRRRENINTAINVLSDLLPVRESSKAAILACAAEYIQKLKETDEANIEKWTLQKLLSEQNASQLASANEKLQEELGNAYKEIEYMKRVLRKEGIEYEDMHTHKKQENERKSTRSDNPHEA"}
{"Strand": "TGCTGAAACAACTGGCACGCAAGGTTTTTTAGCAGC", "fluorescence intensity": "81.2 a.u."}
{"Strand": "TTTCTTCCTCTTGACAGCGTGCAAAGCCATTGATAG", "fluorescence intensity": "84.5 a.u."}
{"Strand": "ACACAGATTGGCCATCACGCACCCATAATCATTTCT", "fluorescence intensity": "147 a.u."}
{"Strand": "GCCTCCGGTCCAGGCACCGTGGCCGCAGGTTTGATT", "fluorescence intensity": "55.2 a.u."}
{"Strand": "GGGAGACAGCGCGGCCACGTGACGGGCTTCCTCTTT", "fluorescence intensity": "3790 a.u."}
{"Strand": "TTTTTCTTTTGATATACCGTGATGGCTCTGATAGGT", "fluorescence intensity": "108 a.u."}
{"Strand": "GATACCCCGTTGCACCATGTGGAGGATGTAGCCACT", "fluorescence intensity": "70.5 a.u."}
{"Strand": "GAAGATAGCCACCATCACGTGAAGGCCATCCCAAGA", "fluorescence intensity": "2030 a.u."}
{"Strand": "GATGAACTGAAAAGGCACATGAGAACGCATACAGGG", "fluorescence intensity": "88.8 a.u."}
{"Strand": "AAATTACTAAGTTGACGAGTGGGTGACGCCGTATGA", "fluorescence intensity": "67.7 a.u."}
{"Strand": "ACTCCGGTGTTGAAGTCCGTGTCTGTCCAACCAAGA", "fluorescence intensity": "65.1 a.u."}
{"Strand": "CTTTCCCGATCTTGGTGGGTGGGTGTAGCACATTTG", "fluorescence intensity": "63.9 a.u."}
{"Strand": "CGGGGTTAAGTTTGAAAAGTGGGTGGCTTGCAGCAG", "fluorescence intensity": "58.7 a.u."}
{"Strand": "CTAACGAAGGTTTGTCACGTCACTTACAAGCCAAGT", "fluorescence intensity": "106 a.u."}
{"Strand": "TATATGTAGTATCCACACGTGGACGACCATTAACGA", "fluorescence intensity": "599 a.u."}
{"Strand": "CGAAGTTTGCGGCGTCACATGATAAAATTCCATTAT", "fluorescence intensity": "1690 a.u."}
{"Strand": "CTTTCCCGATCTTTTCACGTGGACTTAGCACATTTG", "fluorescence intensity": "653 a.u."}
{"Strand": "CGATCTGGATATCACCACGCAGATCGACTCTTACAT", "fluorescence intensity": "68.1 a.u."}
{"Strand": "TGGAAGGAAAAAACCTTCGTGGGTAGAGGGCTCATA", "fluorescence intensity": "58 a.u."}
{"Strand": "CCGAACCTTTGAGCGGTCATGACAACTTCAATTCTT", "fluorescence intensity": "83.5 a.u."}
{"data": "Series 4", "target": "RNA binding protein fox-1 homolog 2, RRM domain, GST-SBP tag (RBFOX2, Homo sapiens, UniProt O43251-10, residues 100-194)", "technique": "RNA Bind-n-Seq", "molecule type": "RNA", "sample": "in vitro", "tested at": "365 nM", "setting": "natural RNA segment, single round, ends assumed", "relative to": "no-protein control", "reading": "higher = stronger binding", "shared flanks, not repeated": "GGGAGUUCUACAGUCCGACGAUC … UGGAAUUCUCGGGUGCCAA", "Construct (chain)": "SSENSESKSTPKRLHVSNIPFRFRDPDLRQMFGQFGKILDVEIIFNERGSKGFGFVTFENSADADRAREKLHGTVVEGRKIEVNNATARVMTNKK"}
{"Strand": "AUGCUUCUCUUCUAUAUAACCCUCAUCUUCUCAUUUUAUGGGAUUCAACACAAAGUCUACUUAUGCUUCUUUGCAUUAUGGUUAAACAAUUAAAAAAAAAAAAAGGACUC", "RBNS enrichment (R)": 0.596}
{"Strand": "UUAGUUUUCUUUGCCCUUUCCAUGUUGUAGGCUACAUACAUCUCCAUGUUCAUUCUCAUGUUUUUUGUCAGUGUGACCUUCUCAUGCCCUGUCAUGAUAGAGCUGUAAUU", "RBNS enrichment (R)": 0.35}
{"Strand": "AGUCAUAGAAAUCAGUCUCUCUGGUUUGUUUUGUAUUAUGUUGUACAUCAUUAAAGAUCUAAAUACAAAGGAUAUACAGUCUUGAAUCUAAAAUAAUUUGCUAACUAACU", "RBNS enrichment (R)": 0.587}
{"Strand": "AGCUAUAAAAGUGUCUUAGAGAGAAUACUCAUCUAGUAAAUAGUGUGAGUUUCCAAUGUAUUAUCUUAUAUCAAGUAAGAAAUCAAGUAUAUAUCAGCAGAGGCUUACCA", "RBNS enrichment (R)": 0.328}
{"Strand": "UUUCAGAGGCCUUUUUUUGUUUGUUUUAAUUUUUGCUAGAUUGAUAUUAAAAACUCAUGUGGAGGAACUCAAGGAAUGUUUAGAAGACCAAAAGUCCCCAAUGACAGGAA", "RBNS enrichment (R)": 1.99}
{"Strand": "AAACUACAGCAUCAUUGCAUACUUCUUGAUGGUAAUAAAUUUGAAUAAUCAAGAUUUCUUACACACUGGCCUCUGUCUCAGCUCCUGUAUCUAGAGUGUGGUAUCUUAAG", "RBNS enrichment (R)": 4.87}
{"Strand": "GUUCUUUGUCUGCCCAGCUAUUGGAGGAUGGGAAGUGGAGGGAGGGUCACUCUUUCCCUCUUACUGUAGUUUCCUAGAUUUAUCUGAGGAAAAGUGAGAUGUCUUCACGC", "RBNS enrichment (R)": 0.306}
{"Strand": "AUAUCAAGGUGGCAGUGGAAGGGGGUGAGCUAAGGACCCAGCAAGGUUUCCUGGAGGCAAAGUUUAUGAAAUCCUUUCUGUAACUCCAUAAAGAUGUCUGCAGCUAUUUC", "RBNS enrichment (R)": 0.544}
{"Strand": "UGACAAGGGCCAGAGCCUGUCCCUUGUCAGCAGUAGGACAUUUCCAGCUCUUAGGAAUAGAAAGGAGGACUGCUGACUGUCUGGCGCUGUAUAAAAAUGUGUAUACCAAU", "RBNS enrichment (R)": 0.702}
{"note": "For quick reference, copied from above (series 3):"}
{"Strand": "TGCTGAAACAACTGGCACGCAAGGTTTTTTAGCAGC", "fluorescence intensity": "81.2 a.u."}
{"Strand": "TTTCTTCCTCTTGACAGCGTGCAAAGCCATTGATAG", "fluorescence intensity": "84.5 a.u."}
{"Strand": "ACACAGATTGGCCATCACGCACCCATAATCATTTCT", "fluorescence intensity": "147 a.u."}
{"Strand": "GCCTCCGGTCCAGGCACCGTGGCCGCAGGTTTGATT", "fluorescence intensity": "55.2 a.u."}
{"Strand": "GGGAGACAGCGCGGCCACGTGACGGGCTTCCTCTTT", "fluorescence intensity": "3790 a.u."}
{"Strand": "TTTTTCTTTTGATATACCGTGATGGCTCTGATAGGT", "fluorescence intensity": "108 a.u."}
{"Strand": "GATACCCCGTTGCACCATGTGGAGGATGTAGCCACT", "fluorescence intensity": "70.5 a.u."}
